# Published values of several laboratories.
# Values joined by “and” are separate records of one study, mostly repeats; a detail may differ. Numbers after ± are the reported error.
# TDP1: Tyrosyl-DNA phosphodiesterase 1 (TDP1, Homo sapiens, UniProt Q9NUW8)
# Chain of UniProt Q9NUW8 (whole entry, looked up): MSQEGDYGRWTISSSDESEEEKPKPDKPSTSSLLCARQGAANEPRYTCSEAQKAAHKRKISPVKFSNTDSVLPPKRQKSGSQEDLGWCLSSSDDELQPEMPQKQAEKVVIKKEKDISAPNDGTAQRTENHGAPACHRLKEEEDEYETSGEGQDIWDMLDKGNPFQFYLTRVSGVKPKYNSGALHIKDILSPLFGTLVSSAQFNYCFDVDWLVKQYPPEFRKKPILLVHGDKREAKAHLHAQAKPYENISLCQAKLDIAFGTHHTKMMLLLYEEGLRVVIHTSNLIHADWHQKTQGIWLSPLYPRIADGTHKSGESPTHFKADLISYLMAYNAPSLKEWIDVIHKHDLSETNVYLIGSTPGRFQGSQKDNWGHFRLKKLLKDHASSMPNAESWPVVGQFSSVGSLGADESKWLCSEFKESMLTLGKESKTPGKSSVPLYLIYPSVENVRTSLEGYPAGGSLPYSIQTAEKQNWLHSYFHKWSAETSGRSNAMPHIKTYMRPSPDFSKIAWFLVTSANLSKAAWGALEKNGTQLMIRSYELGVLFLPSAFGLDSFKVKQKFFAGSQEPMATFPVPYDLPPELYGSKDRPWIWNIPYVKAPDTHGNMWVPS
SMILES,target or system,assay,test system,setting,scale,measurement,result
COc1cccc(OC)c1-c1cc(C(=O)NC2(C(=O)O)C3CC4CC(C3)CC2C4)nn1-c1ccc(C(=O)N(C)CCOCCN(C)C(=O)[C@H](CCCCNC(=O)[C@H](CC(C)C)NC(=O)C2OC2C(=O)O)NC(=O)CN2CCN(CC(=O)[O-])CCN(CC(=O)[O-])CCN(CC(=O)[O-])CC2)cc1C(C)C.[177Lu+3] (mixture of isomers),HT-29,SDS-PAGE autoradiography,,"concentration not given, 4 h",baseline: radioactive signal,adduct formation,49.8%
CN1CCCNC(=O)c2cccc(c2)C(=O)NCCCN(C)CCCNc2cccc3c2C(=O)c2cccc(c2C3=O)NCCC1,SAS,"RNA-Seq, item: PTCD1 mRNA",,"1 µM, 6 h",baseline: untreated cells,log2 fold change,-0.44
C=CC(=O)Nc1cc(Nc2nccc(-c3c(-c4ccc(C(C)(C)C)cc4)n(C)c4ccccc34)n2)c(OC)cc1N(C)CCN(C)C,NCI-H1975,"cell growth or viability, MTT",,"0.5 µM, 72 h",,inhibition,65.3%
CCOC(=O)c1ccc(-n2c(N)c(C#N)c(SC)c(C#N)c2=O)cc1,HepG2,"cell growth or viability, MTT",,"1.56 µM, 24 h",,viability,100%
COc1ccc(NC(=O)c2c(Nc3ccccc3)sc(C(=O)N/N=C/c3ccc(OC)c(OC)c3)c2NC(C)=O)cc1,HepG2,"cell growth or viability, SRB",,"1 µM, 48 h",,viability,65%
COc1cc(N(C)CCN(C)C)c(NC(=O)/C=C/c2ccc(C)cc2)cc1Nc1nccc(-c2cn(C)c3ccccc23)n1,NCI-H1975,"cell growth or viability, MTT",,"0.5 µM, 72 h",,inhibition,65.3%
CCNc1cc2c(cc1C)C1(c3cc(C)c(NCC)cc3O2)c2ccccc2C(=O)N1N=Cc1c[c-]c(-c2ccccn2)cc1.Cc1c(C)c(-c2ccc(-c3ccccc3)cc2)[c-](C)c1C.[Cl-].[Ir+3],A549,annexin V/PI flow cytometry,,"3.0×IC50, 24 h",,late apoptotic cells,85.72 ± 0.54%
COC(=O)c1cc(NC2=NC(=O)C(=Cc3ccc(C)cc3)S2)ccc1OC(C)=O,MCF7,"GC-MS, item: Citric acid",,1 µM,baseline: DMSO,metabolite level,0.08 fold change
CCc1n(CC(=O)O[C@@H]2C[C@H](C)CC[C@H]2C(C)C)c2ccccc2[n+]1C,HTS cells (mouse),"gene microarray, item: COX6A2",,"1 µM, 6 h, unit not given",baseline: untreated,mRNA level,1.6
O=C(C[Se]C(=O)c1cc2ccccc2[nH]1)Nc1cccc(C(F)(F)F)c1,NCI60 melanoma subpanel,cell growth,,"10 µM, 48 h, one-dose",,mean growth percent,-76.6%
Cn1ncc2cc(-c3cncc(Cl)c3N3CCC4(CCNC4=O)CC3)ccc21,LS174T,"microarray, item: SLC6A4",,"concentration not given, 24 h, gene set SERT",baseline: untreated cells,fold change in expression,2.15
O=C(C[Se]C(=O)c1cc2ccccc2s1)Nc1cccc(C(F)(F)F)c1,NCI60 leukaemia subpanel,NCI60 five-dose screen,,,,mean TGI,4030 nM
COc1cc(N(C)CCN(C)C)c(NC(=O)/C=C/c2cccc(-c3ccccc3)c2)cc1Nc1nccc(-c2cn(C)c3ccccc23)n1,NCI-H1975,"cell growth or viability, MTT",,"0.5 µM, 72 h",,inhibition,65.5%
C=CC(=O)N1CCCC(n2c(=O)c3ncccc3n(Cc3ccc(Oc4ccccc4)cc3)c2=O)C1 (stereo not drawn),Rec1,item: CD69,,concentration not given,baseline: untreated,log2 fold change,0.325
C=CC(=O)Nc1cc(Nc2nccc(-c3c(-c4cc(C)cc(C)c4)n(C)c4ccccc34)n2)c(OC)cc1N(C)CCN(C)C,NCI-H1975,"cell growth or viability, MTT",,"0.5 µM, 72 h",,inhibition,65.5%
Cc1ncsc1-c1ccc([C@H](C)NC(=O)[C@@H]2C[C@@H](O)CN2C(=O)[C@@H](NC(=O)[C@H]2C[C@H](C(=O)N3CCC(c4cc(Nc5cc(C#N)ccn5)nc(N5CCC(F)(F)C5)c4)CC3)C2)C(C)(C)C)cc1,CAL-33 with inducible wild-type LZK,"MS proteomics, item: HSPB8",,"500 nM, 24 h, with: doxycycline",baseline: DMSO,protein level log2 fold change,-0.129
COc1ccccc1-c1ccncc1C(=O)Nc1nnc(OCc2ccc(Cl)cc2)s1,MDA-MB-231,,,0.75 µM,,colony count,34 and 35 and 25 and 22
O=C(C[Se]C(=O)c1cccnc1Nc1cccc(C(F)(F)F)c1)Nc1cccc(C(F)(F)F)c1,NCI60 leukaemia subpanel,NCI60 five-dose screen,,,,GI50,1780 nM
O=C(Nc1nnc2c1c(-c1ccc(Cl)cc1)nc1sc(=Cc3ccco3)c(=O)n12)c1ccccc1 (mixture of isomers),HOP-92,SRB,,"10 µM, NCI60 single-dose screen",baseline: untreated,cell growth,57.2%
COc1ccccc1-c1ccncc1C(=O)Nc1ccc(OCc2ccc(Cl)cc2)nn1,DLD-1 parental (BRCA2 WT),,,"10 µM, single run",baseline: untreated,colony survival,98% and 99% and 97.5%
Cc1ncsc1-c1ccc(C(C)NC(=O)C2CC(O)CN2C(=O)C(NC(=O)CCCCCCCCCCN2CCCC(Nc3ncc(Cl)c(Nc4ccccc4S(=O)(=O)C(C)C)n3)C2)C(C)(C)C)cc1 (stereo not drawn),22Rv1,"RNA-seq, item: TMOD2 mRNA",,concentration not given,baseline: DMSO,log2 fold change,-1.2
O=C(N1CCCC1)n1cc(-c2ccc(-c3ccccc3)cc2)nn1,mouse T cells,"N-terminal labelling proteomics, item: NDUFV2 N-terminal peptides",,"0.001 µM, 6 h",baseline: DMSO,SILAC ratio,1.12
COC(=O)C1=C(C)Oc2cc(OC)ccc2C1C(C(C)=O)C(=O)OC (stereo not drawn),3T3-L1 preadipocytes,"adipogenesis, Oil Red O staining",,"IC20, 14 days, single replicate",,lipid content,0.721 OD492 and 0.711 OD492 and 0.732 OD492
CN(C)CCN1CCN(c2ccc3nc(-c4ccc5nc(-c6ccc(C(F)(F)F)cc6)[nH]c5c4)[nH]c3c2)CC1,HOP-62,SRB,,"10 µM, 48 h",,growth percent,57.6%
CCN(C(=O)c1cc(F)ccc1Oc1nncnc1N1CCC2(C1)CN([C@H](CCCN(C)CCOC)C(C)C)C2)C(C)C,C-33-A,cell growth or viability,,7 days,,GI50,> 10000 nM
O=C(C[Se]C(=O)C12CC3CC(CC(C3)C1)C2)Nc1cccc(C(F)(F)F)c1,NCI60 melanoma subpanel,cell growth,,"10 µM, 48 h, one-dose",,mean growth percent,-49.7%
Cc1ccc(Cn2cc3c(n2)CN(c2cncc(C(=O)N(C)C)n2)C3)cc1,HEK293 expressing GluA1 and GluA2,"glutamate excitotoxic cell death, CellTox Green",,with: glutamate,,IC50,114 nM
Cn1ncc(-c2ccc3c(=O)[nH]nc(CN)c3c2)c1-c1c(F)c(Cl)cc(OC2CC2)c1C#N,143B,"cell viability, inhibitor, CellTiter-Glo",,"120 h, baseline-subtracted",,IC50,620 nM
COc1ccc2c(c1)c(CC(=O)[Se]CC(=O)Nc1cccc(C(F)(F)F)c1)c(C)n2C(=O)c1ccc(Cl)cc1,NCI60 leukaemia subpanel,NCI60 five-dose screen,,,,GI50,2020 nM
COc1ccc(C=NOCc2ccc(-c3nc4cc(-c5ccccc5)ccn4c3Nc3ccc(C(=O)O)cc3)cc2)cc1Cn1cccn1,TDP1,"enzyme activity, inhibitor",,"100 µM, unpurified compound",,inhibition,67.1%
CC(=O)Oc1ccccc1C(=O)[Se]CC(=O)Nc1cccc(C(F)(F)F)c1,NCI60 CNS subpanel,NCI60 five-dose screen,,,,mean TGI,4850 nM
COc1cc(N2CCN(C(=O)C3CCCN3)CC2)ccc1Nc1ncc(Cl)c(Nc2ccccc2P(C)(C)=O)n1 (stereo not drawn),Ba/F3 EML4-ALK,annexin V flow cytometry,,"concentration not given, 3 h",,late apoptotic cells,7.6%
COc1cccc(/C=C/C(=O)Nc2cc(Nc3nccc(-c4cn(C)c5ccccc45)n3)c(OC)cc2N(C)CCN(C)C)c1,NCI-H1975,"cell growth or viability, MTT",,"0.5 µM, 72 h",,inhibition,67.8%
CNS(=O)(=O)Nc1nccc(Cc2c(C)c3ccc(Oc4ncccc4F)cc3oc2=O)c1F,TCC-SUP,"cell viability, inhibitor, CellTiter-Glo",,7 days,,IC50,> 1000 nM
NC(=O)c1ccc(-c2ccccc2Cl)c2c3c([nH]c12)CC[C@@H](N)C3,A549 parental,cell proliferation,,,,IC50,25.6 nM
C=CC(=O)Nc1cc(Nc2nccc(-c3c(-c4ccc5ncccc5c4)n(C)c4ccccc34)n2)c(OC)cc1N(C)CCN(C)C,NCI-H1975,"cell growth or viability, MTT",,"0.5 µM, 72 h",,inhibition,-6.62%
Cc1c(Cl)cccc1Nc1ccccc1C(=O)[Se]CC(=O)Nc1cccc(C(F)(F)F)c1,NCI60 leukaemia subpanel,NCI60 five-dose screen,,,,GI50,1580 nM
CCCCCCc1cccc(C(O)CC(CO)NC(=O)CCCCCCCCCCNC(C)=O)c1 (stereo not drawn),HeLa,"CERT activity, HPLC-MS/MS lipidomics, item: lactosylceramide 24:1",,"1 µM, 24 h, not cell-number normalised",,lactosylceramide level,5710 pmol/sample and 7280 pmol/sample and 4120 pmol/sample
CC1(C)CC(=O)C2=C(C1)Oc1ccc3ccccc3c1C2c1c[nH]c2ccccc12 (stereo not drawn),3T3-L1 preadipocytes,"adipogenesis, Oil Red O staining",,"IC20, 14 days, single replicate",,lipid content,1.07 OD492
CCN(CC)CC(=O)Nc1cccc(-n2cc(-c3ccc4ccc(-c5cn(-c6cccc(NC(=O)CN(CC)CC)c6)nn5)cc4c3)nn2)c1,RCC4,"PCR angiogenesis array, item: HIF1A",,"5 x IC50, 2 h, normoxia",baseline: untreated,fold regulation,1.13
CN(C)c1ccc(-n2cc(COC(=O)[C@]3(C)C=C(C(=O)OC(C)(C)C)C(=O)CC3)nn2)cc1,HeLa,quantitative western blot,,"concentration not given, 7 (unit not given), with: EGF",,pRSK/tubulin ratio,0.166
O=C(C[Se]C(=O)c1ccccc1Nc1cccc(C(F)(F)F)c1)Nc1cccc(C(F)(F)F)c1,NCI60 melanoma subpanel,"cell growth, inhibitor",,five-dose,,GI50,1870 nM
CC(C)c1ccc(N(C)c2ccc3c(c2)OCC[C@H]3CNc2cnccc2C(=O)O)cc1,SKMEL31,"cell viability, CellTiter-Glo",skin,7 days,,IC50,≥ 10000 nM
CN(C)C(=O)c1ccnc(N2Cc3cn(Cc4ccc(F)cc4)nc3C2)n1,HEK293 expressing GluA1 and GluA2,"glutamate excitotoxic cell death, CellTox Green",,with: glutamate,,IC50,82 nM
C=Cc1cccc(C=NOCc2ccc(-c3nc4cc(-c5ccccc5)ccn4c3Nc3ccc(C(=O)O)cc3)cc2)c1 (mixture of isomers),TDP1,"enzyme activity, inhibitor",,"100 µM, unpurified compound",,inhibition,49.6%

# A few entries again:
SMILES,target or system,assay,test system,setting,scale,measurement,result
COc1cccc(/C=C/C(=O)Nc2cc(Nc3nccc(-c4cn(C)c5ccccc45)n3)c(OC)cc2N(C)CCN(C)C)c1,NCI-H1975,"cell growth or viability, MTT",,"0.5 µM, 72 h",,inhibition,67.8%
CNS(=O)(=O)Nc1nccc(Cc2c(C)c3ccc(Oc4ncccc4F)cc3oc2=O)c1F,TCC-SUP,"cell viability, inhibitor, CellTiter-Glo",,7 days,,IC50,> 1000 nM
NC(=O)c1ccc(-c2ccccc2Cl)c2c3c([nH]c12)CC[C@@H](N)C3,A549 parental,cell proliferation,,,,IC50,25.6 nM
C=CC(=O)Nc1cc(Nc2nccc(-c3c(-c4ccc5ncccc5c4)n(C)c4ccccc34)n2)c(OC)cc1N(C)CCN(C)C,NCI-H1975,"cell growth or viability, MTT",,"0.5 µM, 72 h",,inhibition,-6.62%
